Published values pooled from the literature.
A part holds a random share of what one study measured.

Series 1 — technique: protein binding microarray; molecule type: double-stranded DNA, one strand shown; sample: in vitro; tested at: not given; reference: not given; reading: higher = stronger binding
Target: Histone acetyltransferase KAT6A, winged helix 1, GST fusion (KAT6A, Homo sapiens, UniProt Q92794, residues 1-85)
Notes: 8-mer, flanks averaged, mean of 2 arrays, mostly near background
Target sequence (chain): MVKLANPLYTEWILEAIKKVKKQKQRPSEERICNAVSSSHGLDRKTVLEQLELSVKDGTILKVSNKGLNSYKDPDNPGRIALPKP
Strand	E-score
AATTATTA	-0.00701
ATATCAAG	-0.0583
TAAAAGAA	-0.0343
CTGCGTGC	0.0788
CGCCCTTA	0.0516
CATCATCG	-0.08
ACCATGCC	0.194
ACAGAGGG	-0.0504
CCATTCAA	-0.182
AATTGGGA	-0.181
TACCCCCA	-0.229
TGTTTGAA	-0.258
CTGGAGCA	-0.145
ACTCAGTC	-0.21
ACTCACCT	-0.276
GCCAACCC	0.0826
GTACGGAC	0.185
CCATACCC	-0.00432
ACTGTCAT	-0.104
AATAAGCA	-0.243
CTGAGGGC	0.0123
AAGTATTG	-0.0282
CGATCGGA	0.165

Series 2 — technique: RNA Bind-n-Seq; molecule type: RNA; sample: in vitro; tested at: 365 nM; reference: no-protein control; reading: higher = stronger binding
Target: RNA binding protein fox-1 homolog 2, RRM domain, GST-SBP tag (RBFOX2, Homo sapiens, UniProt O43251-10, residues 100-194)
Notes: natural RNA segment, single round, ends assumed
Residues (chain): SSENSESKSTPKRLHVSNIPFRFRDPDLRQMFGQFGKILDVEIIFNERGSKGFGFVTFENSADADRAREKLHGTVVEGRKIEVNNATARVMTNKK
Strand	RBNS enrichment (R)
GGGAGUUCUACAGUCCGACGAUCCAUUGGUAGUUAUUUUGCACCAGCAGUGCCUUUCUCACUGGGGGUACUUGGACCCUCAGAUCUUCUUUUCUAAUAGCCAUUUGCCACCCCAAGUGGUAUGUCGGCCAUUUUGGAAUUCUCGGGUGCCAA	0.449
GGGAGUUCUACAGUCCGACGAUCCCUGUACAUACAUUGUAUAGGCCAUCUGUAAAUAUCCCAGAGAACAAUCACUAUUCUUAAGCACUUUGAAAAUAUUUCUAUGUAAAUUAUUGUAAACUUUUUCAAUGGUUUGGAAUUCUCGGGUGCCAA	0.443
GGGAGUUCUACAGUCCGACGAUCUCUCCCAAAGCUAAAUCUUUAUAUUAGGAACAAUUAAAUAUUGACUUAAGUUGUAAAAAUUGAGAGUACAAUAUCUUUAGGGAUAGUCAUUAUUUCUCACAACUAGUUCUUGGAAUUCUCGGGUGCCAA	0.634
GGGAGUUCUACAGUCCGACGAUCCACUGGGUGGUUCCCACUGCAUGACCCUCUAUCCCUGCCAUCUGUCCCCAUGGUUUCCAGCUCAAUCCACCCCUGACCCAUCUGUCAGCUUUUUCCCAGGGAGCCGUUUCUGGAAUUCUCGGGUGCCAA	1.55
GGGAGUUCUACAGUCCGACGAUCCACAGCUGAAUCAGGAGACACAAAGAUGAGACUGUGUUUGGUUACAUUUUCCAAAGUUUCAUUGCAUUCUCCCUUGGGGAGGCUGUGAGAGAGGGCUUGUAUCCCUCUUGUGGAAUUCUCGGGUGCCAA	0.264
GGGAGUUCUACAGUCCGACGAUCCAACAGCUACAUUAUAUUUCCUUCUGACACUUGGAAGGUAUUGAAAUUUCUAGAAAUGUAUCCUUCUCACAAAGUAGAGACCAAGAGAAAAACUCAUUGAUUGGGUUUCUUGGAAUUCUCGGGUGCCAA	0.404
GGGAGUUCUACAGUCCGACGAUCUGGUCCCCACUCAUGAGGACCUUAACUCCCUGACGAUCCAGUCACCCAGGACCUGAUGUCAGCAGCCUGAGGAUAACAACCCUGUCAGUGAAACGGAAUCUCCACCCCAGUGGAAUUCUCGGGUGCCAA	0.228
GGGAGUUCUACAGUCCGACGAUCAGUCUUCUUACAUUGUUGGUUCUACUUACAUACUACUGGUCCAACUCUCAUGCUGUUUCUCUCAGAUGUUCCCAUGAUGGUUGCCAAGGACACUUGAUAGAAAGACUACUUGGAAUUCUCGGGUGCCAA	0.365

Series 3 — technique: aptamer microarray, sandwich; molecule type: DNA with 2'F-ANA; sample: in vitro; tested at: 200 nM; together with: Cy3 exosite-II aptamer, 400 nM; reading: higher = stronger binding; strand: GGTTGGTGTGGTTGG
Target: Prothrombin, mature alpha-thrombin (F2, Homo sapiens, UniProt P00734)
Notes: whole 15-mer aptamer, many near background
Modification	mean fluorescence intensity [a.u.]
2'F-ANA at 4 5 7 9 10 12 15	57.8
2'F-ANA at 3 9 12 13 14	616
2'F-ANA at 2 5 10 12 15	128
2'F-ANA at 3 4 7 8 12 15	1100
2'F-ANA at 6 8 10 12 15	202
2'F-ANA at 3 6 7 8 11 13 14 15	612
2'F-ANA at 1 2 3 4 6 7 8 9 10 12 13 14 15	57.1
2'F-ANA at 2 6 7 8 11 13	427
2'F-ANA at 4 6 7 8 11 13	222
2'F-ANA at 2 3 4 6 7 8 10 11 12 13 15	207
2'F-ANA at 2 5 6 9 10 11 12 13 15	50.3
2'F-ANA at 1 3 4 5 6 9 15	63
2'F-ANA at 1 4 7 8 15	186
2'F-ANA at 1 2 5 6 8	60.5
2'F-ANA at 3 6 8 10 13 15	484
2'F-ANA at 1 3 4 5 9	60.5
2'F-ANA at 2 3 5 8 10 12	65.7
2'F-ANA at 3 6 8 9 11 12 15	1030
2'F-ANA at 4 8 9 10 11 14	56.1
2'F-ANA at 3 4 6 7 9 10 12	364
2'F-ANA at 1 4 6 8 9 11 14 15	55.7
2'F-ANA at 2 6 8 9 14	130
2'F-ANA at 2 6 7 8 9 10 12 13 14	88.6
2'F-ANA at 3 6 9 12 13	1060
2'F-ANA at 2 3 4 7 9 10 11 12 14 15	204

Series 4 — technique: RNA Bind-n-Seq; molecule type: RNA; sample: in vitro; tested at: 200 nM; notes: whole 134-nt RNA, ends assumed; together with: 150 mM LiCl; reference: input library; reading: higher = stronger binding; each molecule: 7-deaza-guanosine replaces G
Target: Fragile X messenger ribonucleoprotein 1, C-terminal low-complexity region (Fmr1, Mus musculus, UniProt P35922)
Strand	log2 enrichment
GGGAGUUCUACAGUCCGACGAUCCUGUGCUACACAUCGUAUGUACCGAAUCGGGCCCCCCCGGGGCCCCCCCGGGCCCCCCCGGGAAAGUAUUAUGUUACGCCGUUCGGAUCUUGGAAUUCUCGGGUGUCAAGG	-1.51
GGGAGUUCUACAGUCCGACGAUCUCCUGUGCUACACAUCGUAUGUACCGAAUCGGGUUUUUUGGGUUUUUUGGGUUUUUUGGGAAAGUAUUAUGUUACGCCGUUCGGAUCUGCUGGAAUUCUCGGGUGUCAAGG	-0.569
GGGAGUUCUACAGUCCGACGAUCACCAUGCAGGUGGGCAUCUUUGUGAAGUGGGGCAAGGGGGGGAUAGGGAGGGGGGUAACACUUUGGGAACAGGUGGUCCCAGGUCGUUUCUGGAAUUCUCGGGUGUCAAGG	1.21
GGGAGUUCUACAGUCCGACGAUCGUCCUGUGCUACACAUCGUAUGUACCGAAUCGGGGAAAAAGGGGAAAAAGGGGAGGGGAAAGUAUUAUGUUACGCCGUUCGGAUCUGCACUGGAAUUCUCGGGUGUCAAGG	0.778
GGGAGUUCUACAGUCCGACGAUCUGUGCUACACAUCGUAUGUACCGAAUCGGGGUUUUUUUGGGUUUUUUUGGGGUUUUUUUGGGGAAAGUAUUAUGUUACGCCGUUCGGAUCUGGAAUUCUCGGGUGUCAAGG	2.1
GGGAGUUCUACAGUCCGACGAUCCCUGUGCUACACAUCGUAUGUACCGAAUCGGGGAAAAAAAGGGGAAAAAAAGGGGUGGGGAAAGUAUUAUGUUACGCCGUUCGGAUCUGCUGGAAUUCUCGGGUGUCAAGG	0.823
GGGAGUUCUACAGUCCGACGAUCCCUGUGCUACACAUCGUAUGUACCGAAUCAAAUUUUUAAACCCCCCCAAACCCCCCCAAAAAAGUAUUAUGUUACGCCGUUCGGAUCUGCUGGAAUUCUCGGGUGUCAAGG	1.8
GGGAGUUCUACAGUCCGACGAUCAGUCCUGUGCUACACAUCGUAUGUACCGAAUCGGGGUGGGGUUUGGGGUUUUUGGGGAAAGUAUUAUGUUACGCCGUUCGGAUCUGCACUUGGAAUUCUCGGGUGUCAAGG	-1.34
